# Measurements gathered from unrelated publications.
# Parts stem from different laboratories: compare values within a part only. Substitutions count along the parent as printed.

# Series 1 — technique: RNA Bind-n-Seq; molecule type: RNA; sample: in vitro; concentration: 100 nM; baseline: input RNA pool; reading: higher = stronger binding
# Target: RING finger protein unkempt homolog, zinc fingers 1-6, SBP tag (UNK, Homo sapiens, UniProt Q9C0B0, residues 30-357)
# Sequence of UniProt Q9C0B0 (30-357, looked up): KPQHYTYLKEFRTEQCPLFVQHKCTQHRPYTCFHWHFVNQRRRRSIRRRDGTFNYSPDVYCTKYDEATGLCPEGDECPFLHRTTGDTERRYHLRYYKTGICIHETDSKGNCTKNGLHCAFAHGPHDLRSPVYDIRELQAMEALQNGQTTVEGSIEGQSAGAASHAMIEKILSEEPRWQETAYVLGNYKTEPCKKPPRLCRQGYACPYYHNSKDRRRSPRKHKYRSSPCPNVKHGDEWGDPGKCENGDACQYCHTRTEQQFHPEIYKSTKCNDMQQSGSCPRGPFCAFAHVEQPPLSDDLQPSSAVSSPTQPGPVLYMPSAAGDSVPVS
# Setting: RNA with constant flanks, vertebrate orthologous sites, ends assumed
# Shared flanks, not repeated: GGGAGUUCUACAGUCCGACGAUC … CAACAGAGGAUUGAGCAUCA
Sequence,bound/input enrichment [ratio]
AUCUCUCAUUUUAUAUGUCCAAAAAUGGCUUUGAAUUUUAAGCAAUUACUAGUUUUAAAUUAGCUCUGCCCUCAUGAAGUAUUAUUAUAAUUCACCAUAAACAGCUAUCUGUCUGAAUUA,1.36
GCCUCCAAAAGGCAGAUUCAGGGAGAGAUAGACUUCAGGGAAUAUAAAUUUAUUUAAUAAUAAUGAUCUGAAAUAAUAAAUUUGGUAUAAUUGGAUUGUGGGGGAGCAGUGAUGAUGAUU,0.904
GGCAUGUCCUGUAGCUGUGUGUUCAAACACCUCACAGUACUCACUCUGUCCCAACAAUUCUAAUUGCCUAGAAAUAUCCUUCUCUUACCUGUUAUUUAUCAAUUUUUCCCAGUAUUUUUA,2.24
CAUGUCUGGUGAUAUUUGGCCUGGCCUUUCAGCUUAUGAUAAUAGUUCCAGAUCACCCCAUAGUCCUUCACCUAUUGCUACACCACCUAGUCAGAGUUCAUCUUGUUCUGAUGCCCCCAU,1.34
AAAUGCGAUGGUUGAAGGCUCUGAGCUCAAAAAGAUUCGAUCCAACUCUAGGGUGUAUCAUCGAUACUUCCUUUUAGAUGCGGAUAUGCAAUCUCUACGCUGGGAACCUUCAAAAAAGGA,0.173
UUACAGUCAUUGAUGGACUCUAUUUUUUUAUUAUUCCUUGGACCUUGGUCGUUUUUAUACUAGCAAAAAAAAUGUCUUGUUUUGAUUUUUUUUUUGUUUUUUGGGGGGGAGGGCGGCGGG,1.54

# Series 2 — target: CCND1, cyclin fold, Cln2 fusion (human); technique: yeast growth competition, sequencing; sample: yeast; setting: weak parent motif; baseline: not given; reading: higher = stronger binding
# Parent: RB1 docking peptide (human); PKPLKKLRFDIEG
Variant,normalised enrichment score
VKPLKKLRFDIEG [P1V],0.00565
PKPLKKQRFDIEG [L7Q],-0.791
PKPLKKLRTDIEG [F9T],-0.28
SKPLKKLRFDIEG [P1S],-0.454
PKNLKKLRFDIEG [P3N],-0.395
PKPLKKLRHDIEG [F9H],-0.238
YKPLKKLRFDIEG [P1Y],-0.199
QKPLKKLRFDIEG [P1Q],-0.0516

# Series 3 — technique: Sort-seq; measured: YFP reporter; sample: E. coli; setting: PhoQ-PhoP variant library; with: 10 µM Mg2+; baseline: high Mg2+ state; reading: higher = stronger signaling
# Molecule: PhoQ, residues 284 288 289 292 302 303 SSTLLI
target,fold induction
"PhoP, residues 12 14 15 18 19 TQALL (Escherichia coli, UniProt P23836)",14.7
"PhoP, residues 12 14 15 18 19 NYFRM (Escherichia coli, UniProt P23836)",6.91
"PhoP, residues 12 14 15 18 19 QYFSL (Escherichia coli, UniProt P23836)",11.9

# Series 4 — technique: RNA Bind-n-Seq; molecule type: RNA; sample: in vitro; concentration: 200 nM; setting: whole 134-nt RNA, ends assumed; with: 150 mM KCl; baseline: input library; reading: higher = stronger binding
# Target: Fragile X messenger ribonucleoprotein 1, C-terminal low-complexity region (Fmr1, Mus musculus, UniProt P35922)
# Shared flanks, not repeated: GGGAGUUCUACAGUCCGACGAUC … UGGAAUUCUCGGGUGUCAAGG
Sequence,log2 enrichment
UGGCCCUGGUGGCAUGCGGGGAGGAAGAGGUGGCCUCAUGGAUCGUGGUGGUCCCGGUGGAAUGUUCAGAGGUGGCCGUGGUGAAGACAG,-0.151
GUCCUGUGCUACACAUCGUAUGUACCGAAUCGGAAAAAAAGGAAAAAAAGGAAAAAGGAAAGUAUUAUGUUACGCCGUUCGGAUCUGCAC,-0.714
CAAGUCCUGUGCUACACAUCGUAUGUACCGAAUCAAAUUUAAAUUUAAACCCAAAAAAGUAUUAUGUUACGCCGUUCGGAUCUGCACUUC,0.185
CUGUGCUACACAUCGUAUGUACCGAAUCGGGGCCCCCCCGGGCCCCCCCGGGCCCCCCCGGAAAGUAUUAUGUUACGCCGUUCGGAUCUG,-1.06
UCCUCAAGUCCUGUGCUACACAUCGUAUGUACCGAAUCGGAGGGGAGGGAGGAAAGUAUUAUGUUACGCCGUUCGGAUCUGCACUUCCAG,0.24
UCCUGUGCUACACAUCGUAUGUACCGAAUCGGUUUUUUGGGUUUUUUGGGUUUUUUGGGGAAAGUAUUAUGUUACGCCGUUCGGAUCUGC,-0.131
UUCAUGAGGACCUCCGCCUGCUCUUGGAGACCCACCUGCCGUCCAAAAAGAAGAAAGUACUCUUGGGAGUUGGGGAUCCCAAGAUUGGUG,-0.215
AGUCCUGUGCUACACAUCGUAUGUACCGAAUCGGGGCCCCGGGCCCCGGCCCCGGGGAAAGUAUUAUGUUACGCCGUUCGGAUCUGCACU,-0.857
CCUGUGCUACACAUCGUAUGUACCGAAUCAAACCCCCAAAUUUUUUUAAAUUUUUUUAAAAAAGUAUUAUGUUACGCCGUUCGGAUCUGC,0.131
UGUGCUACACAUCGUAUGUACCGAAUCGGGAAAAAAAGGGGAAAAAAAGGGGAAAAAAAGGGAAAGUAUUAUGUUACGCCGUUCGGAUCU,-0.156
CACAGACAACACGCACCCACACAGACACAGAGGGAAGGGGUUGGGAUGGGAAAAGGGUGCACAGCAGGGCGGGGUAGGACCCCAGCCCCU,1.34

# Some of these lines once more (series 3):
target,fold induction
"PhoP, residues 12 14 15 18 19 NYFRM (Escherichia coli, UniProt P23836)",6.91
"PhoP, residues 12 14 15 18 19 QYFSL (Escherichia coli, UniProt P23836)",11.9
